Measurements from different studies.
Compare with care: the assays were run in different laboratories. Several values in a cell are separate wells, animals, samples, runs or records.
Target: Vasopressin V1a receptor (AVPR1A, Homo sapiens, UniProt P37288)

SMILES | test | test system | setting | scale | endpoint | result
COc1ccc(F)cc1S(=O)(=O)Nc1cnc2c(c1)C(=O)NCCO2 | ligand displacement, radioligand |  | 10 µM |  | inhibition | -3%
N[C@H](C(=O)N1CCCC1)C1CCN(c2nccc3c(-c4ncc(Cl)cc4Cl)cccc23)CC1 | functional response, agonist |  | 10 µM |  | response | 20%
CCN(CC)CCOc1ccc(-c2nnn(Cc3ccc(OC)cc3)c2N)cc1 | radioligand binding | CHO | 10 µM, human, together with: radioligand 10000 nM |  | inhibition | -12.1%
Cc1sc2c(c1C)C(c1ccc(Cl)cc1)=NC(CC(=O)OC(C)(C)C)c1nnc(C)n1-2 (stereo not shown) | ligand displacement, radioligand |  | 1 µM |  | remaining binding | 105%
C/C(=N\OCCCN1CCCCC1)c1ccc(C(F)(F)F)cc1 | antagonist, IP-One |  | 10 µM |  | inhibition | 2.53%
CS(C)(=O)=Nc1ccc(-c2ccc(-c3nc4cc(O[C@@H]5CO[C@H]6[C@@H]5OC[C@H]6O)[nH]c4cc3F)cc2)cc1 | calcium signal, antagonist |  | 10 µM |  | inhibition | 44%
Cc1cc(Nc2nc(C[C@@]3(C(=O)O)CCN(Cc4cccc(Cl)c4F)[C@H](C)C3)cc(C)c2F)[nH]n1 | inhibitor |  | 10 µM |  | inhibition | -12%
O=C(O)c1ccc(-c2nc(-c3ccccc3Cl)c3sccn23)cc1 | radioligand binding, safety screen panel |  | 10 µM | reference: control | specific binding | 99.6% and 80.6%
Cc1cc(-c2ccc3ccccc3c2)nnc1NCCN1CCN(C)CC1 | antagonist |  | concentration not given |  | antagonist activity | negative
CCc1nnc(-c2c(OC)cc(-c3cnc4cc(-c5cnn(C)c5)ccn34)cc2OC)o1 | agonist radioligand, radioligand binding |  | 10 µM, SafetyScreen44 V1a replicate 2 | lower = stronger displacement | remaining binding | 103%

Some of these lines once more:
SMILES | test | test system | setting | scale | endpoint | result
C/C(=N\OCCCN1CCCCC1)c1ccc(C(F)(F)F)cc1 | antagonist, IP-One |  | 10 µM |  | inhibition | 2.53%
